# Measured values of several laboratories.
# Compare with care: the assays were run in different laboratories.
# CDC7 with cyclin B1: Cell division cycle 7-related protein kinase, with cyclin B1 (CDC7, Homo sapiens, UniProt O00311)
# UniProt O00311, sequence (whole entry, looked up): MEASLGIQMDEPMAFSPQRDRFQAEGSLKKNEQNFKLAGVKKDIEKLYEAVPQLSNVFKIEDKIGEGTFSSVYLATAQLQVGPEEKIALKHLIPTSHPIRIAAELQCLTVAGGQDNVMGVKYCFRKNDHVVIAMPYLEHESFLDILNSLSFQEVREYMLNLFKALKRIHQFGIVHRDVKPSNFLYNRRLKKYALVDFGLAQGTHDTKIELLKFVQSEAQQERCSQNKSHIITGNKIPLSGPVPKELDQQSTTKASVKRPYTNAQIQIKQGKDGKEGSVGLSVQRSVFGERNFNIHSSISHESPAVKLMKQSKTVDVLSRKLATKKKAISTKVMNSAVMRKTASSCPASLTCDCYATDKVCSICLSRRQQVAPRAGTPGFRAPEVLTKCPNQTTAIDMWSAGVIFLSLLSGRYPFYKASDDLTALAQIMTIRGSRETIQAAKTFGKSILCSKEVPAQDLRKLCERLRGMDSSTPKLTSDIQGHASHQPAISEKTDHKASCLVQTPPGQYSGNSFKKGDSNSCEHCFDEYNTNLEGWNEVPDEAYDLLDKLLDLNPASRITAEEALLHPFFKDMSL
# CDC7 with DBF4: Cell division cycle 7-related protein kinase, with DBF4 (CDC7, Homo sapiens, UniProt O00311)
Compound,target,test,setting,scale,measurement,value
COc1ccc2oc(-c3ccc4nc(N)oc4c3)c/c(=N\c3ccccc3NC(=O)CCN)c2c1,CDC7 with cyclin B1,kinase activity,1 µM,relative to: untreated control,remaining activity,97%
CNc1ncc2c(/C=C/C(=O)N3CCC(OC)CC3)nn(Cc3cccc(C(F)(F)F)c3)c2n1,CDC7 with DBF4,inhibitor,1 µM,relative to: control,remaining activity,103%
CC(C)(O)[C@H]1CC[C@H](Nc2ccc3ncc(-c4cccc(C(F)(F)F)c4)n3n2)CC1,CDC7 with DBF4,"enzyme activity, inhibitor","1 µM, with: 10 µM ATP",relative to: DMSO,remaining activity,104%
COc1cc(-c2cncc3c2CN(C)Cc2cc(N4CCNCC4)ccc2-3)cc(OC)c1OC,CDC7 with cyclin B1,enzyme activity,"1 µM, with: 10 µM ATP",relative to: DMSO,remaining activity,117%
CC/C(=N\NC(=O)NCc1cccc(O)c1)c1ccc(O)c(C)c1O,CDC7 with DBF4,kinase activity,0.1 µM,,inhibition,-0.4%
CN1CC(Oc2cnc(C#N)cc2-c2ccn3nc(NC(=O)C4CC4)cc3c2)C1,CDC7 with cyclin B1,"inhibitor, KinaseProfiler panel",1 µM,,inhibition,6%
CC(C)(C)c1nc2c(s1)c1nc(N)ncc1c1ccc(NS(=O)(=O)c3c(F)cccc3F)c(F)c12,CDC7 with DBF4,"kinase activity, radiometric 33PanQinase",1 µM,relative to: DMSO,remaining activity,95%
Cc1ccc(C(=O)NCc2ccsc2)cc1C#Cc1cn(C(C)C)c2ncnc(N)c12,CDC7 with cyclin B1,kinase activity,"1 µM, with: ATP at Km",,remaining activity,88%

# For quick reference, copied from above:
Compound,target,test,setting,scale,measurement,value
CN1CC(Oc2cnc(C#N)cc2-c2ccn3nc(NC(=O)C4CC4)cc3c2)C1,CDC7 with cyclin B1,"inhibitor, KinaseProfiler panel",1 µM,,inhibition,6%
